# Measured values from different studies.
# A part holds a random share of what one study measured. Changes are numbered by the printed parent chain.

# Set 1
# Target: Fragile X messenger ribonucleoprotein 1, C-terminal low-complexity region (Fmr1, Mus musculus, UniProt P35922)
# Technique: RNA Bind-n-Seq
# Form: RNA
# Medium: in vitro
# Tested at: 200 nM
# Setting: whole 134-nt RNA, ends assumed
# With: 150 mM LiCl
# Baseline: input library
# Direction: higher = stronger binding
# All molecules: 7-deaza-guanosine replaces G
Oligonucleotide,log2 enrichment
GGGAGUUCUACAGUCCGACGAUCUUCCUUUCCGUUGUGUGUUUUAAAGGUGUGUGCCCUCUUCCUGAUUCUGGAGAAAAAUGCCGGUCCGGAAGCAAGGUGAGAGUUUAUUCCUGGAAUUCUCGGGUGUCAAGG,1.52
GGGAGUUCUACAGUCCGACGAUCUCAAGUCCUGUGCUACACAUCGUAUGUACCGAAUCGGAAAGGGAAAGGGGAAAGGAAAGUAUUAUGUUACGCCGUUCGGAUCUGCACUUCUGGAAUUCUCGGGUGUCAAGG,-0.868
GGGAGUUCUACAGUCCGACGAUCAGUCCUGUGCUACACAUCGUAUGUACCGAAUCGGGGUUUGGGGAGGGGAAAAAGGGGAAAGUAUUAUGUUACGCCGUUCGGAUCUGCACUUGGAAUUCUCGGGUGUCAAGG,0.00334
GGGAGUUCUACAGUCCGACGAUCAAGUCCUGUGCUACACAUCGUAUGUACCGAAUCGGGGAAAGGGAAAGGGGAAAGGGGAAAGUAUUAUGUUACGCCGUUCGGAUCUGCACUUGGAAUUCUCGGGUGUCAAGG,0.935
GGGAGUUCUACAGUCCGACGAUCGCAGGAAGUAAAACCAAAUGGAAAUGCUUCGGAUAGUGGCAGGGGUGGGGGUUGCUAAGGAAAGGGUGGGAUGGGAGUGGGUAAAGAGUUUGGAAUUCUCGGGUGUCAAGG,1.44
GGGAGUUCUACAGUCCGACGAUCUUUCUUCUGCUGCUGCUAGUCAUGAGAUCAAGGUGGGUCUGAGAAUGGCCAUUCAGAGGCCCUGGAUAGUAACCAGGUAAUGGAUGACACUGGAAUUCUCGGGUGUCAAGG,-0.467
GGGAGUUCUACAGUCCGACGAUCUCCUGUGCUACACAUCGUAUGUACCGAAUCGGGGCCCCCGGGCCCCCGGGGCCCCCGGGAAAGUAUUAUGUUACGCCGUUCGGAUCUGCAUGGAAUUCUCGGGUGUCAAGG,-3.22
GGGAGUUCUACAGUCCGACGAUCCCUCAAGUCCUGUGCUACACAUCGUAUGUACCGAAUCGGUUUGGAAAGGUGGAAAGUAUUAUGUUACGCCGUUCGGAUCUGCACUUCCAGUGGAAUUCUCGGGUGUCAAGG,0.0614
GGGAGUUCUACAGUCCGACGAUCUGGCCCUGGUGGCAUGCGGGGAGGAAGAGGUGGCCUCAUGGAUCGUGGUGGUCCCGGUGAAAUGUUCAGAGGUGGCCGUGGUGGAGACAGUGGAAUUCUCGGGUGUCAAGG,-0.571
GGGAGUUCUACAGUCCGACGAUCUUCAUUCCUUGGAAGAAGCUGUACCAUCGAUACCUGAUGAAUGAAGAGCAAGCUGUCAGCAAAGUGGACGGCAUCCUGUCUAACUGUGGCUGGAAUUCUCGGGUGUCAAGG,-2.73
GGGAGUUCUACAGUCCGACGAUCACCAUGCAGGUGGGCAUCCUUGGGAAGUGGGGCAAGGGGGGGAUAGGGAGGGGGGUAACACUUUGGGAACAGGUGGUCCCAGGUCGUUUCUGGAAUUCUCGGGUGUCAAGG,1.43

# Set 2
# Target: CCNE1, cyclin fold, Cln2 fusion (human)
# Technique: yeast growth competition, sequencing
# Medium: yeast
# Setting: strong parent motif
# Baseline: not given
# Direction: higher = stronger binding
# Parent: CDKN1A docking peptide (human); SKACRRLFGPVDS; partner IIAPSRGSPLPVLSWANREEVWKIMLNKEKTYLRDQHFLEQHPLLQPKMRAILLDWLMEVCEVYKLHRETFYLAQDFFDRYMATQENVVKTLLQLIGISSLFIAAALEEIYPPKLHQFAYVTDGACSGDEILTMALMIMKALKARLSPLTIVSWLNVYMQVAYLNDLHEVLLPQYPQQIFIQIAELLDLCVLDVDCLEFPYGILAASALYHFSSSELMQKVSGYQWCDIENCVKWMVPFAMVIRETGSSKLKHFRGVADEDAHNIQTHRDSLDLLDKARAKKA
Substitution,normalised enrichment score
SKACRRLFGEVDS [P10E],5.97
SKACRRLFGGVDS [P10G],5.28
SKACRRLFGPVES [D12E],5.29
SKWCRRLFGPVDS [A3W],1.75
SKACRTLFGPVDS [R6T],2.82
SKACDRLFGPVDS [R5D],-0.432
SKACRRLIGPVDS [F8I],0.346
SKACRRWFGPVDS [L7W],0.361
SKACQRLFGPVDS [R5Q],0.338
SKAMRRLFGPVDS [C4M],1.76
SQACRRLFGPVDS [K2Q],4.87
SKACRRLFLPVDS [G9L],5.03
SKACRRLFYPVDS [G9Y],5.97
SKACRRLFGPHDS [V11H],5.38
SKASRRLFGPVDS [C4S],1.94
SKACRALFGPVDS [R6A],2.26
SKACRNLFGPVDS [R6N],3.98
SKACRRLFRPVDS [G9R],2.91

# Set 3
# Target: RNA binding protein fox-1 homolog 2, RRM domain, GST-SBP tag (RBFOX2, Homo sapiens, UniProt O43251-10, residues 100-194)
# Technique: RNA Bind-n-Seq
# Form: RNA
# Medium: in vitro
# Tested at: 365 nM
# Setting: natural RNA segment, single round, ends assumed
# Baseline: no-protein control
# Direction: higher = stronger binding
# Residues (chain): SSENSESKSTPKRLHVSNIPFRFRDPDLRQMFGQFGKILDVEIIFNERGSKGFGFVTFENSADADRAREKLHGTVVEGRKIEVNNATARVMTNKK
Oligonucleotide,RBNS enrichment (R)
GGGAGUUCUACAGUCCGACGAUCUUUUCUUUAUUAAAGUAUUCUUGUAAGACAGUUUUCUGUGUCAAGUAUUUGUGAAAUCAGAGCUGACAUGUAAGCUAUUCUUGUAAUAUCUCAUUAUUUUGAAAGAUUUAUGGAAUUCUCGGGUGCCAA,0.529
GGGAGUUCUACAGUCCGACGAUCACUGUUCCUUAAUACUGGCAUAAUGCUUCCAGGAAGUUUUUCUUUUUUAUAUUUAAAAUGUUACUUUUCUGUAUGAUGUGCAUGCAAGUUUACCGUAACUUUUCUUAAACUGGAAUUCUCGGGUGCCAA,2.61
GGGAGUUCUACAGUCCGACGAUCUGAAAGCUUCUUCCAGUCCCUGAUCUGGCUCAUUCCCCACCUUCAACUCCCACCUUACAUGUCUCACACUAUCCCAUGGUUGGCAUUACACUCACUCCUGUUCCCUUAUUUGGAAUUCUCGGGUGCCAA,0.836
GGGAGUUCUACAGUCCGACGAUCUUUAUGCCUUUGCGGGUUUCUUGAUGUGUUCGCAGUGUCACCCCAGAGUCAGAACUGUACACAUCCCAAAAUUUGGUGGCCGUGGAACACAUUCCCGGUGAUAGAAUUGCUGGAAUUCUCGGGUGCCAA,0.252
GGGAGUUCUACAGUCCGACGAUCUAUAUUUAUAUUCUUAGAUAGUUUGUUCCACAAUUUUUCAUUUCAUGCUUCCAUAUAUAUUACCCUGAACUUUCUAUCACCACAGAUAAAGAUUUUGUUUUGCCCUGCAAUGGAAUUCUCGGGUGCCAA,1.21
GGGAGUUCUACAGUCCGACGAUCGGAUUUACUAAUCUAGUGGAAUAUGCAUGGAUCAGACUGUGGCAUACAAGUCGUGCAGAGCAUGAAGCAGCUUACCUAACUCUUAAACUAUCCUAAGCAAUGUGUGCUUGUGGAAUUCUCGGGUGCCAA,27.6
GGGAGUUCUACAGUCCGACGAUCCCUGCCAUCCCCCCUCCAUUGCUUGUUCCAGCAUCUUGGUGAAAGGGGCAUCAGCUCUGGUGUCCCUGAGAGACGAGAAGCCUGUGGGAACGACAGAAGAACAUGGCAUUUGGAAUUCUCGGGUGCCAA,0.384
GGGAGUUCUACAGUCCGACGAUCGCUGCCUCCAGAAUGGUCUUUCUAAUGUGUGAAUCAGAGCACAGCAGCCCCUGCACAAAGCCCUUCCAUGUCGCCUCUGCAUUCAGGAUCAAACCCCGACCACCUGCCCAUGGAAUUCUCGGGUGCCAA,0.487
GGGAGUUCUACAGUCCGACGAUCUCUUUGAUUUCAUAGUGAGUUUUCUAAAAGACCAGCCGACUAGCUUUUGCAGACUUUGAACAGAACUCUGGUUCCUGUGUUGCCUCUAAUGAAGUAUUCUGUUCCUAGUUUGGAAUUCUCGGGUGCCAA,0.579
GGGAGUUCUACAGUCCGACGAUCUACAAUUCAAGAUGAGAUUUGGAUGGGACACAGCCAAACCAUAUCAAUAGGUAUUAUUUUAUCCCCCAUUUUAUAAAUGAGGAAACGGAGGCUUAGUUGAGUGAGCUGACUGGAAUUCUCGGGUGCCAA,0.333
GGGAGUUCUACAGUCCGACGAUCGAGGGCUUAGGCUGUCUUAGGUGCACACUUGCACGGUCUCCAUGGCCUCCGUGAGCAUCUUUGUAGCUAGCAAUGAGGAAGUGCAGGUGUCUACAGGCCAUCACGUGGGGUGGAAUUCUCGGGUGCCAA,0.686
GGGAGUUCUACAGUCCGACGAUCCGCUGGCCCUGGAUGUCAUACGAGUUGGGGACCAGAAAUCUGGGCUCAGAGAACCCGUCCAGGGAGAUUUGAAGCCAUGGGUUAUCUUCUAGAGUUGAUACUGAUAAUAUUGGAAUUCUCGGGUGCCAA,0.431

# Set 4
# Target: Sal-like protein 4, full length isoform B (SALL4, Homo sapiens, UniProt Q9UJQ4-2, residues 1-616)
# Technique: universal PBM
# Form: double-stranded DNA, one strand shown
# Medium: in vitro
# Tested at: not given
# Setting: 8-mer, flanks averaged, mean of replicates
# Direction: higher = stronger binding
Oligonucleotide,E-score
CCGCGGAC,-0.323
ATAACGGA,0.231
CACTCCTC,-0.278
AGCTTGCC,-0.106
AATACCCT,-0.0746
CTTTAACC,0.0687
ATTGCGCC,-0.00068
CTGAACAG,-0.0609
GGCATTGA,0.00795
CCCCCTAC,-0.257
GTATAGCA,0.197
CTACAAAA,0.0946
ACAGCACC,-0.262
AAAGATCA,0.138
GTCTATTA,0.21

# Set 5
# Target: PABPC1L2, full length, GST fusion (mouse, UniProt A0ABA7IW68)
# Technique: RNAcompete
# Form: RNA
# Medium: in vitro
# Tested at: 20 nM
# Setting: 7-mer, probes averaged, single round
# Baseline: mean of 7-mers
# Direction: higher = stronger binding
# Construct (chain): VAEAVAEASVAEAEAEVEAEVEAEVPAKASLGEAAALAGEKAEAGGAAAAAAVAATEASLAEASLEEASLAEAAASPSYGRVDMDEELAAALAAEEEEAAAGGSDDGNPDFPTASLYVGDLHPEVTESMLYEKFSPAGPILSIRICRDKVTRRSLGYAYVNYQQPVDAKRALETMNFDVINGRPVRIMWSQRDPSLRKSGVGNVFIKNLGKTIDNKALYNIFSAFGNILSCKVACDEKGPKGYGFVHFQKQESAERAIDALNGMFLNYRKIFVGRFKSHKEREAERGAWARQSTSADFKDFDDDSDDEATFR
Oligonucleotide,7-mer Z-score
GGGAAGG,0.369
UUGGCCU,-0.423
UUCAGAC,-0.17
GUCGUGU,-0.411
GCCCCUC,-0.354
GGUAAUA,-0.0663
AACCUUA,-0.00289
AGCGCGC,-0.209
UAAGCGU,-0.122
UCCGGCU,-0.425
GCCAACC,-0.18
AUUCUAU,-0.296
CCGCUGG,-0.293
GCACAAG,-0.0609
AGGGCGC,0.265

# A few entries again (set 1):
Oligonucleotide,log2 enrichment
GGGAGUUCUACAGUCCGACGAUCACCAUGCAGGUGGGCAUCCUUGGGAAGUGGGGCAAGGGGGGGAUAGGGAGGGGGGUAACACUUUGGGAACAGGUGGUCCCAGGUCGUUUCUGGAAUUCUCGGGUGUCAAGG,1.43
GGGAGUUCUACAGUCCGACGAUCAGUCCUGUGCUACACAUCGUAUGUACCGAAUCGGGGUUUGGGGAGGGGAAAAAGGGGAAAGUAUUAUGUUACGCCGUUCGGAUCUGCACUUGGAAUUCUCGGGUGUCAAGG,0.00334
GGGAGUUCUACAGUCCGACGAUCUCAAGUCCUGUGCUACACAUCGUAUGUACCGAAUCGGAAAGGGAAAGGGGAAAGGAAAGUAUUAUGUUACGCCGUUCGGAUCUGCACUUCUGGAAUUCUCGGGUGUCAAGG,-0.868
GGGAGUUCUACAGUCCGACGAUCUUCAUUCCUUGGAAGAAGCUGUACCAUCGAUACCUGAUGAAUGAAGAGCAAGCUGUCAGCAAAGUGGACGGCAUCCUGUCUAACUGUGGCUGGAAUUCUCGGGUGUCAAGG,-2.73
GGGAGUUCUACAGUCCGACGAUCUCCUGUGCUACACAUCGUAUGUACCGAAUCGGGGCCCCCGGGCCCCCGGGGCCCCCGGGAAAGUAUUAUGUUACGCCGUUCGGAUCUGCAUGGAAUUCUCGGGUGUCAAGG,-3.22
